Measurements gathered from unrelated publications.
A part holds a random share of what one study measured. Changes are numbered by the printed parent chain.

Sample 1
Target: CREBZF, bZIP domain (human)
Technique: DHFR protein complementation
Medium: yeast
Notes: single substitutions, most at no-binding floor
Relative to: wild-type JUN-FOS pair
Reading: higher = stronger binding
Parent: JUN, bZIP domain (human); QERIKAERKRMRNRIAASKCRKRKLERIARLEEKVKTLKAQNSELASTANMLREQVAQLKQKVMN; partner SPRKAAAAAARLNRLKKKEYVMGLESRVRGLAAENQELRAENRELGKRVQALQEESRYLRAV
For `A29E`, the binding fitness was -1.47 natural log.
`T37E` has a binding fitness of -1.49 natural log.
The binding fitness of `E32K` is reported as -1.53 natural log.
With `N42P` the binding fitness was -1.5 natural log.
The binding fitness of `Q41N` is reported as -1.52 natural log.
For `M51Q`, the binding fitness was -1.47 natural log.
`L52V` gave a binding fitness of -1.51 natural log.
`A49G` has a binding fitness of -1.52 natural log.
`S47V` gave a binding fitness of -1.29 natural log.
With `I28C` the binding fitness was -1.49 natural log.
With `S43W` the binding fitness was -1.49 natural log.
For `T37P`, the binding fitness was -1.49 natural log.
For `N42H`, the binding fitness was -1.47 natural log.
`R53Q` gave a binding fitness of -1.62 natural log.
With `S47L` the binding fitness was -1.41 natural log.
`E33P` gave a binding fitness of -1.51 natural log.
`R30M` gave a binding fitness of -1.43 natural log.
With `L52K` the binding fitness was -1.56 natural log.

Sample 2
Target: Interferon regulatory factor 5, full length, phosphomimetic (IRF5, Homo sapiens, UniProt Q13568-2, residues 1-514, K96S/S451D/S453D/S456D/S462D)
Technique: protein-binding microarray
Form: double-stranded DNA, one strand shown
Medium: in vitro
Tested at: 250 nM
Notes: 60-bp whole probe
Added: salmon DNA 0.4 mg/ml
Relative to: random background probes
Reading: higher = stronger binding
Shared flanks, not repeated: GCCTAGCAC … GTCTTGATTCGCTTGACGCTGCTG
`GACGGACTGGGGTTTCGGGTCGTGCTA` has a log fluorescence of 2.25 z-score.
`TTGGATATCAGTTTCGATTAGTGCTAG` gave a log fluorescence of 9.79 z-score.
For `TACAAATCCAGCCCTACAGAGTGCTAG`, the log fluorescence was -0.097 z-score.
The log fluorescence of `GACGAACTGAGACAGGAGACGTGCTAG` is reported as -0.356 z-score.
`GACGATATCAGTATCGCGACGTGCTAG` has a log fluorescence of 1.41 z-score.
`TTGTCTTTTCATTTTCTTTAGTGCTAG` gave a log fluorescence of 2.3 z-score.
`TTAGGTTTCGGGTTCCGGTTAGTGCTA` has a log fluorescence of 8.8 z-score.
With `TTAGATTTCAATTTCGATTAGTGCTAG` the log fluorescence was 7.64 z-score.
For `TACGGTCTCCTTATCCTGACGTGCTAG`, the log fluorescence was 0.105 z-score.
`GACGGACTTGGGACTGGGGACGTGCTA` has a log fluorescence of -0.319 z-score.
`GACGGACTGGGGACTGGGGGCGTGCTA` gave a log fluorescence of 0.368 z-score.
`TTAGGACTGTACACTGGGTTAGTGCTA` gave a log fluorescence of 0.0377 z-score.
The log fluorescence of `ACCAGTTTTCTTTTCATTACGTGCTAG` is reported as 1.93 z-score.
For `TACGGACTGGGGTATCGGGACGTGCTA`, the log fluorescence was -0.177 z-score.
`CGATTACAGCTAGGTAGTGGGTGCTAG` has a log fluorescence of -0.284 z-score.
The log fluorescence of `TTAGCTTTCGGGTTTCGGTTAGTGCTA` is reported as 10.2 z-score.
With `TTAGATTCCAATTTCGATTAGTGCTAG` the log fluorescence was 7.13 z-score.
With `GACGGATTGGACTTTCGGGACGTGCTA` the log fluorescence was 3.98 z-score.
The log fluorescence of `GACGATATCGGTTTCGGGACGTGCTAG` is reported as 7.73 z-score.
For `TATTTTTTTTATTTATAAATGTGCTAG`, the log fluorescence was 1.42 z-score.
For `TCAGTCATCTATAATGGAACTGTGCTA`, the log fluorescence was 0.474 z-score.
`CGGGCTTTCCCGTCCAGGGCGTGCTAG` gave a log fluorescence of -0.225 z-score.
`GACGATTTCGGACTGGAGACGTGCTAG` has a log fluorescence of 1.32 z-score.
For `GACGGACTGCTTCCCCTGACGTGCTAG`, the log fluorescence was -0.505 z-score.
With `TTAGGTATCCGTCTCCTTTAGTGCTAG` the log fluorescence was 0.0594 z-score.

Sample 3
Target: Prothrombin, mature alpha-thrombin (F2, Homo sapiens, UniProt P00734)
Technique: aptamer microarray, sandwich
Form: DNA with 2'F-ANA
Medium: in vitro
Tested at: 200 nM
Notes: whole 15-mer aptamer, many near background
Added: Cy3 exosite-II aptamer, 400 nM
Reading: higher = stronger binding
Sequence: GGTTGGTGTGGTTGG
`2'F-ANA at 4 5 6 7 8 11 12 13 14 15` — result for “mean fluorescence intensity”: 50.4 a.u.
Under “mean fluorescence intensity”, `2'F-ANA at 3 6 7 8 11 12` is recorded as 1160 a.u.
Under “mean fluorescence intensity”, `2'F-ANA at 4 5 7 8 10 11 13 14` is recorded as 64 a.u.
For `2'F-ANA at 3 6 7 10 11 14`, “mean fluorescence intensity” read 384 a.u.
`2'F-ANA at 2 5 8 10 11 14 15`: “mean fluorescence intensity” 96.7 a.u.
`2'F-ANA at 1 2 3 4 5 6 8 9 10 11 13 14 15` — result for “mean fluorescence intensity”: 54.2 a.u.
Under “mean fluorescence intensity”, `2'F-ANA at 2 4 5 10 11 13 15` is recorded as 44.8 a.u.
Under “mean fluorescence intensity”, `2'F-ANA at 1 2 3 4 5 6 9 12 13 15` is recorded as 71.2 a.u.
For `2'F-ANA at 5 8 10 14`, “mean fluorescence intensity” read 57 a.u.
`2'F-ANA at 1 2 3 10 12 13 14`: “mean fluorescence intensity” 75.5 a.u.
`2'F-ANA at 6 8 11` — result for “mean fluorescence intensity”: 479 a.u.
`2'F-ANA at 3 4 5 7 12 13 14` — result for “mean fluorescence intensity”: 54.5 a.u.
`2'F-ANA at 2 3 4 5 10 12 13` — result for “mean fluorescence intensity”: 58.6 a.u.
Under “mean fluorescence intensity”, `2'F-ANA at 1 2 5 7 8 11 12 14` is recorded as 48.2 a.u.
`2'F-ANA at 4 6 7 8 11`: “mean fluorescence intensity” 295 a.u.
For `2'F-ANA at 5 6 7 9 11 12 13`, “mean fluorescence intensity” read 82.3 a.u.

Sample 4
Target: Histone acetyltransferase KAT6A, both winged helices, GST fusion (KAT6A, Homo sapiens, UniProt Q92794, residues 1-181)
Technique: protein binding microarray
Form: double-stranded DNA, one strand shown
Medium: in vitro
Tested at: not given
Notes: 8-mer, flanks averaged, mean of 2 arrays, mostly near background
Relative to: not given
Reading: higher = stronger binding
Residues (chain): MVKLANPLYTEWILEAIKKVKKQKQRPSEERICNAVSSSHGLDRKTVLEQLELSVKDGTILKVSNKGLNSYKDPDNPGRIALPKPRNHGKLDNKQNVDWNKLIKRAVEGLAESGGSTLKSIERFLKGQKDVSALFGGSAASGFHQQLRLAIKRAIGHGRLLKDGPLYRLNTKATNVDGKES
The E-score of `AAGGAACC` is reported as 0.0067.
For `GTCACCCA`, the E-score was -0.109.
The E-score of `CTTGGCGA` is reported as -0.0133.
The E-score of `ATCCCATA` is reported as -0.0777.
For `TATCTGCA`, the E-score was -0.146.
With `AATTCTAC` the E-score was -0.103.
With `GAGCTGGA` the E-score was -0.133.
`GAGATTAA` has an E-score of -0.0175.
For `GATACCCA`, the E-score was -0.107.
For `CCGAATCG`, the E-score was 0.158.
`CTCTTGAC` gave an E-score of -0.141.
`GTAACGAC` has an E-score of 0.0386.
With `CGACTCGC` the E-score was 0.14.
For `GCAATCAA`, the E-score was -0.0601.
`AGCCGGAA` gave an E-score of 0.192.
`CCGGAGGC` gave an E-score of 0.00485.
For `GTAGCAAA`, the E-score was -0.107.
For `ATCCAGAA`, the E-score was -0.0311.
For `ACTTAGAT`, the E-score was -0.0281.
The E-score of `ATTTGACC` is reported as -0.0829.
`GAGCCAGA` has an E-score of -0.177.
The E-score of `ACAGGCTA` is reported as -0.248.
`AGCTGAGC` gave an E-score of -0.0257.
`CTAACATC` has an E-score of -0.0707.
For `ACGTGCTA`, the E-score was -0.0109.

Sample 5
Target: RNA binding protein fox-1 homolog 2, RRM domain, GST-SBP tag (RBFOX2, Homo sapiens, UniProt O43251-10, residues 100-194)
Technique: RNA Bind-n-Seq
Form: RNA
Medium: in vitro
Tested at: 365 nM
Notes: natural RNA segment, single round, ends assumed
Relative to: no-protein control
Reading: higher = stronger binding
Shared flanks, not repeated: GGGAGUUCUACAGUCCGACGAUC … UGGAAUUCUCGGGUGCCAA
Residues (chain): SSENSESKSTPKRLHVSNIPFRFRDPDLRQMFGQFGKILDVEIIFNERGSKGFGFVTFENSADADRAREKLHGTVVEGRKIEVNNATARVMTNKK
For `UUCCUCUCACUUUCACACCUUUAAUUUAAAUCUAUUUAAGAGAACCAUGGUUCUGAUUGUUGUGUAUAUUUUUCUAAAGGCUGAAUAAAGCUAUCUAUGAAUGUGAACAA`, “RBNS enrichment (R)” read 1.46.
For `UGCUAAGCAGGGCUUUGAAUACUUCUCCUUUAGCACUGGAGUAACAUUUAGGCAUGAGCUCUUGGCAGGAGUGGGCUCUGAGCAGGUGUCAUAUUCAUUCUUUACAAACC`, “RBNS enrichment (R)” read 1.13.
For `UCAGAGAAAUUGCUCACAAAAGUUAGUGACAGUUGUAUUUAUUUUUUUAAGUUACAAUAAAAUGCUCUCAAGUCCUUUGAAUGUUCCAACAAAUUCAAAACUUCAUUUUC`, “RBNS enrichment (R)” read 0.77.
For `AGUACAGUCAACCUAUCAGAGAGACAAGGGUGAUGCCCCGGUGAGUGUGUCUCAGCUGUGUUUAUGAAUUUGUUUGGUUCACACAUAUCUGAGUGGUAUGGAUAACUGGG`, “RBNS enrichment (R)” read 1.51.
Under “RBNS enrichment (R)”, `CCUGGCUCUCGGCAGUGACGUCCUCCCACACCUGGUCACAAGUAGUAGUGGCUGUGCUAUACCCAGCAUCAUGCUUAACAGCGUGUUGCCCUUCUGAGCCUGUUGUACUC` is recorded as 0.22.
`GACAAGGGCGUCCCCAAGAGACACCCUCACCGUACCAAAGAGCUGAGCUGCUUCUGGGUCUCACGGACCUCCUUGCAGCCCCCUUGCCCUUUCCUUGCCUUGUGUCCGGA` — result for “RBNS enrichment (R)”: 0.343.
For `CAUCUCAUUCAAACCCCACCCUAGUUUCCCUGAAGGAACAUUCCUUAGUCUCAAGGGCUAGCAUCCCUGAGGAGCCAGGCCGGGCCGAAUCCCCUCCCUGUCAAAGCUGU`, “RBNS enrichment (R)” read 0.5.
Under “RBNS enrichment (R)”, `CCCAACCCCAUGCCUCACAGAGCUUCCUGUGGCUUCUCCAGCCUUUCUCCCUCACAUCAGGAGGUAGAUAGCUCUGAAAUGACAGCGCCACAGCCAUAGUGACUGCAUGA` is recorded as 0.621.
`CCAGUAAUGGAGGCCUCCAGCCUGGGCUCUAUUACAUUCUUCUCUACAGCUGCCCCAUAACCCGUGGCUUAUCCCUGGCACGUGGGGCCACACCCCACGCCCCCUGGAUA`: “RBNS enrichment (R)” 0.192.
Under “RBNS enrichment (R)”, `UAAUUGCCGCAUGGAUCCCACUGUGCCCUCUUGUUCUGUGCAAGUCUGUCCUGUCUGGGCACUAACCUUGGUCCCAUGCAUGUUUAUGUUCUGGGUGGGGCUUUGCCUCU` is recorded as 17.8.
`UUACAAAUAUUACAAAGUAAAAUCUAGCGUCAUAUCCAAUUCUUCCAAAUGACCUCUAUCAGCUGUUGAGUCAGACAGAUCCACGGACAUGUCUACCAAAAAAUGAUGUG`: “RBNS enrichment (R)” 0.269.
Under “RBNS enrichment (R)”, `GUGCUGGCAAGGGAUUGGGUUUGUGUGGGUGUCUCUAGCCUGCAGAGUGCAGUGAGUGAGAGUCCUUGGGAGCGCGGCGCUGCCUGUAGCUGUGCCUGGGGAUGCACGUG` is recorded as 12.8.

Excerpt of the above (sample 3):
Under “mean fluorescence intensity”, `2'F-ANA at 2 4 5 10 11 13 15` is recorded as 44.8 a.u.
`2'F-ANA at 4 6 7 8 11`: “mean fluorescence intensity” 295 a.u.
For `2'F-ANA at 3 6 7 10 11 14`, “mean fluorescence intensity” read 384 a.u.
Under “mean fluorescence intensity”, `2'F-ANA at 3 6 7 8 11 12` is recorded as 1160 a.u.
`2'F-ANA at 2 3 4 5 10 12 13` — result for “mean fluorescence intensity”: 58.6 a.u.
`2'F-ANA at 1 2 3 4 5 6 8 9 10 11 13 14 15` — result for “mean fluorescence intensity”: 54.2 a.u.
`2'F-ANA at 6 8 11` — result for “mean fluorescence intensity”: 479 a.u.
`2'F-ANA at 2 5 8 10 11 14 15`: “mean fluorescence intensity” 96.7 a.u.
For `2'F-ANA at 5 8 10 14`, “mean fluorescence intensity” read 57 a.u.
Under “mean fluorescence intensity”, `2'F-ANA at 1 2 3 4 5 6 9 12 13 15` is recorded as 71.2 a.u.
`2'F-ANA at 4 5 6 7 8 11 12 13 14 15` — result for “mean fluorescence intensity”: 50.4 a.u.
`2'F-ANA at 3 4 5 7 12 13 14` — result for “mean fluorescence intensity”: 54.5 a.u.
